# Measurements of several laboratories.
# A part holds a random share of what one study measured. “And” joins repeats or separate records; there may be more than shown.
# Chain of UniProt P27037 (whole entry, looked up): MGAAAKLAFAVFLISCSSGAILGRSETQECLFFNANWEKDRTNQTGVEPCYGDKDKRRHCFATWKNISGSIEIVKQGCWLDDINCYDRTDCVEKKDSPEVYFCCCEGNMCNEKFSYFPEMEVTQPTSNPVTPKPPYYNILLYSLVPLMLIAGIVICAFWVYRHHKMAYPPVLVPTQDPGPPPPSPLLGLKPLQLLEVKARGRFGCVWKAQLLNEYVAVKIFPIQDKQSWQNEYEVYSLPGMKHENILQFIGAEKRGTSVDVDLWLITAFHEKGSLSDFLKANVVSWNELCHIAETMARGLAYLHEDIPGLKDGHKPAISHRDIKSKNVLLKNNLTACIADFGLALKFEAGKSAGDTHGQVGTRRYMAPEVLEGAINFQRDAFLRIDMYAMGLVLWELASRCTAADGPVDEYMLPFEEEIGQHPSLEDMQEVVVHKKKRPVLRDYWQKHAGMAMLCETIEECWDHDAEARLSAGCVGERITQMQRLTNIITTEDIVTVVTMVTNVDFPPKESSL
# Chain of UniProt O75582 (whole entry, looked up): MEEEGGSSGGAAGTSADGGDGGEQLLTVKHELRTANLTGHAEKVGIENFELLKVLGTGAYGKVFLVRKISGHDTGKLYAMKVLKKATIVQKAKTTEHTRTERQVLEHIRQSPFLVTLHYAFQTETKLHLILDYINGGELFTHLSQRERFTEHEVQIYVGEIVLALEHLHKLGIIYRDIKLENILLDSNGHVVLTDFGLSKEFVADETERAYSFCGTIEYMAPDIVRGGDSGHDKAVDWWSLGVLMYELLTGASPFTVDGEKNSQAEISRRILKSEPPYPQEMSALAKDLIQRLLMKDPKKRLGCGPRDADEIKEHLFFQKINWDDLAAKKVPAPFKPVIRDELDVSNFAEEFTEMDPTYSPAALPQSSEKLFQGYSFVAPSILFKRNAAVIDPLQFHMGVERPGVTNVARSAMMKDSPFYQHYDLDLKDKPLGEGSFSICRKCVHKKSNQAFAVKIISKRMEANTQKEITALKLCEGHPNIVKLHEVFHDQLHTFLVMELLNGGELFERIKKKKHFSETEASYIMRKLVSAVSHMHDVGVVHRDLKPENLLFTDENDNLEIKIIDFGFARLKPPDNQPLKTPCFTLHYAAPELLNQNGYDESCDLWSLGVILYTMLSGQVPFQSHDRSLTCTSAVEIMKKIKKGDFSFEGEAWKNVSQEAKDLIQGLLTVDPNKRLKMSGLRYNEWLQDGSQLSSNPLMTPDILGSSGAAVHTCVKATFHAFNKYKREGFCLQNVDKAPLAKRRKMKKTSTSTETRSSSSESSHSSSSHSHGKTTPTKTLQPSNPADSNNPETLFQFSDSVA
# Chain of UniProt Q02779 (whole entry, looked up): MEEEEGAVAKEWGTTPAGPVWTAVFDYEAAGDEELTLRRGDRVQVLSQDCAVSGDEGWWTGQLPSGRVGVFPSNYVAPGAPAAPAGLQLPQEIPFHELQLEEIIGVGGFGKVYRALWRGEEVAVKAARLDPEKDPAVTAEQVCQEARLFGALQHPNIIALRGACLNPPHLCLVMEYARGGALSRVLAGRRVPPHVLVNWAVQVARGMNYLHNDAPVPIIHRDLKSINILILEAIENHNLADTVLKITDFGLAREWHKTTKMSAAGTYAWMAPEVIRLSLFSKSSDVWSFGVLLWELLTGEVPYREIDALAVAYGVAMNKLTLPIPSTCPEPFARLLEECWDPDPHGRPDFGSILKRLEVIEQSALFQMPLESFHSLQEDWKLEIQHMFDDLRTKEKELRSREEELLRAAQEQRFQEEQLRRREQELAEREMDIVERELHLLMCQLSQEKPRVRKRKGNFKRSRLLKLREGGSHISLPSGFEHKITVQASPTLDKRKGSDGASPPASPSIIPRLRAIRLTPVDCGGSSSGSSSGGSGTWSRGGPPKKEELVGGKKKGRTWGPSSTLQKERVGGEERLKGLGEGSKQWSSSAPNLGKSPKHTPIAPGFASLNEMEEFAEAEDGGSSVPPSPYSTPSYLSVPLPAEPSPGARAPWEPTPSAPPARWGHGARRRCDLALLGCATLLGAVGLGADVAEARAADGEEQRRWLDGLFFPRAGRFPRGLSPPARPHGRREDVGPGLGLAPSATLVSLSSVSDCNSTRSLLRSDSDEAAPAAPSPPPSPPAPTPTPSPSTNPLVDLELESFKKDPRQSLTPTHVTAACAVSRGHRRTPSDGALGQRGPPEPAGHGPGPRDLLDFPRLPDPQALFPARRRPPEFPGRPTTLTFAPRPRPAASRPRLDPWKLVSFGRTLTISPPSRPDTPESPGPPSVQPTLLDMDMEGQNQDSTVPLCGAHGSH
# Chain of UniProt Q8NEV4 (whole entry, looked up): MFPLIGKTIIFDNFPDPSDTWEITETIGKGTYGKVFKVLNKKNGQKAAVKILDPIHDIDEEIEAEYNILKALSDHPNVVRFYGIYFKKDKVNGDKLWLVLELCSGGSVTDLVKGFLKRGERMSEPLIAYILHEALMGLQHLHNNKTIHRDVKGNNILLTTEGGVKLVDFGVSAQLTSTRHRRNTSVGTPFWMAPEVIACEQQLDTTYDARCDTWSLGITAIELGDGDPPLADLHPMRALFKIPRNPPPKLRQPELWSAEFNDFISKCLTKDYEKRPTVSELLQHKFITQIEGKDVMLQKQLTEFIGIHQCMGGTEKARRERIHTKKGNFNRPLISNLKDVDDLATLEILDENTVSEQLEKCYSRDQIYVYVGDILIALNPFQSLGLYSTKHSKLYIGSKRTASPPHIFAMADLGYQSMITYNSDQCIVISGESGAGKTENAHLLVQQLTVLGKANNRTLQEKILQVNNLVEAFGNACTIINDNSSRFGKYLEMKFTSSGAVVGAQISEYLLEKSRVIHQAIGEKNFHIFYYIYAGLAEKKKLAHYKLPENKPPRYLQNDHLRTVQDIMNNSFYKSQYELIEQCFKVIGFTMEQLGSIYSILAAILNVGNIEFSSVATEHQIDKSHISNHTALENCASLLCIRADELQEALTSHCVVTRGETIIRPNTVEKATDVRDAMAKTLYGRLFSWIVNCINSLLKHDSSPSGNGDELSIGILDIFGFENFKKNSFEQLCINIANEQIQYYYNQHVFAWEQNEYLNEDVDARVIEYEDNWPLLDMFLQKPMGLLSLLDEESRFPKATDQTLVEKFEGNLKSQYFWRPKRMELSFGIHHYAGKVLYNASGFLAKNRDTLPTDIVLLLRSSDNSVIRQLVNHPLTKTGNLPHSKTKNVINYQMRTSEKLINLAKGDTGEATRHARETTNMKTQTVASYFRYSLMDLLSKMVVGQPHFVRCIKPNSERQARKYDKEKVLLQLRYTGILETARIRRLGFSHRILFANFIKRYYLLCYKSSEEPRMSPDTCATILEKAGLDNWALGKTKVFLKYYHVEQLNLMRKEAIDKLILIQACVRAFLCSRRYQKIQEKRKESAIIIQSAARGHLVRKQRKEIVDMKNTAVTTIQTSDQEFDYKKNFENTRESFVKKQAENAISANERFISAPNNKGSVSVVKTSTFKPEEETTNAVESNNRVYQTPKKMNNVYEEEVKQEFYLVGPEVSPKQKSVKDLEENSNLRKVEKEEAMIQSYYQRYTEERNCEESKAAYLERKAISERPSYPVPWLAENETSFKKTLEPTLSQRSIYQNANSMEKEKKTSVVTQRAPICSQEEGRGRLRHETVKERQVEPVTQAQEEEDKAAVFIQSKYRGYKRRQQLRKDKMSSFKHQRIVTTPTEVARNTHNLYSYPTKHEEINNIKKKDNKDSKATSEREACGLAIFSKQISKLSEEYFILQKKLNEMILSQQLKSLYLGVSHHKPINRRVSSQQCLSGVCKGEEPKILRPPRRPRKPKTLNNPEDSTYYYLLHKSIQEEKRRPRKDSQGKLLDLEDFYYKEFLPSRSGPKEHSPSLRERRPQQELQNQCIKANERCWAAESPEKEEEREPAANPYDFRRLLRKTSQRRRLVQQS
# Chain of UniProt Q96NX5 (whole entry, looked up): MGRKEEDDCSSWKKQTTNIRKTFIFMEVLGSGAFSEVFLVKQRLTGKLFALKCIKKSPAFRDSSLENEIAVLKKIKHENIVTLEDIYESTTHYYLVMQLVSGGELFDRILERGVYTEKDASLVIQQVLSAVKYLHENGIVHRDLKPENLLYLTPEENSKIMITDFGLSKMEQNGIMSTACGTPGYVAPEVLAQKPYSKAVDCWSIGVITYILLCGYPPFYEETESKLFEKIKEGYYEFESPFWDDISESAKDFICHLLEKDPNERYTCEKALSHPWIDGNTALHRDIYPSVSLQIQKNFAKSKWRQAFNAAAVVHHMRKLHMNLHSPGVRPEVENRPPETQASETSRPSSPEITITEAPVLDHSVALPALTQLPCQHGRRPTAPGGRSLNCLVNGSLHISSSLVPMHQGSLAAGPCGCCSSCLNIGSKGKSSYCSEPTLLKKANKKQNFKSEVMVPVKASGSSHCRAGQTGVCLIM

# Study 1
# Compound: CC[C@@]1(c2cccc(-c3c(F)cncc3OC)c2)C2=C(Nc3n[nH]cc31)[C@H](F)C(C)(C)CC2=O (single isomer, unassigned)
# Tested at: 1 µM
target,read-out,method,baseline,remaining binding [%]
"Myosin light chain kinase 2, skeletal/cardiac muscle (MYLK2, Homo sapiens, UniProt Q9H1R3)",binding,competition with immobilised ligand,,84
"Mitogen-activated protein kinase kinase kinase 4 (MAP3K4, Homo sapiens, UniProt Q9Y6R4)",kinase binding,KINOMEscan,DMSO control,90
"Serine/threonine-protein kinase Nek3 (NEK3, Homo sapiens, UniProt P51956)",kinase binding,KINOMEscan,DMSO control,58
"Mitogen-activated protein kinase kinase kinase 10 (MAP3K10, Homo sapiens, UniProt Q02779)",kinase binding,KINOMEscan,DMSO control,100
"Calcium/calmodulin-dependent protein kinase type 1G (CAMK1G, Homo sapiens, UniProt Q96NX5)",kinase binding,KINOMEscan,DMSO control,92
"Myosin-IIIa (MYO3A, Homo sapiens, UniProt Q8NEV4)",kinase binding,KINOMEscan,DMSO control,75
"Ribosomal protein S6 kinase alpha-5, N-terminal kinase domain (RPS6KA5, Homo sapiens, UniProt O75582)",kinase binding,KINOMEscan,DMSO control,100
"BMP-2-inducible protein kinase (BMP2K, Homo sapiens, UniProt Q9NSY1)",kinase binding,KINOMEscan,DMSO control,62
"Ephrin type-A receptor 8 (EPHA8, Homo sapiens, UniProt P29322)",kinase binding,KINOMEscan,DMSO control,78
"Activin receptor type-2A (ACVR2A, Homo sapiens, UniProt P27037)",binding,competition with immobilised ligand,,45
"Serine/threonine-protein kinase LATS2 (LATS2, Homo sapiens, UniProt Q9NRM7)",binding,competition with immobilised ligand,,79
"Mitogen-activated protein kinase kinase kinase 1 (MAP3K1, Homo sapiens, UniProt Q13233)",kinase binding,KINOMEscan,DMSO control,62

# Study 2
# SMILES: Cc1ncsc1-c1ccc(C2(NC(=O)C3CC(O)CN3C(=O)C(NC(=O)c3ccc(COc4c(-c5c(C)c(F)cc6[nH]ncc56)c(C5CC5)cc5c(N6CC7CC6CN7)nc(OC6CCOCC6)nc45)cc3)C(C)C)CC2)cc1 (stereo not shown)
# Cell line: AsPC-1
# Method: in-cell ELISA
tested at,setting,phospho-ERK1/2 level
3 nM,individual replicates,98% and 99.8% and 95.9% and 98.3% and 87.4% and 86.6%
1 µM,per-experiment values,8.49% and 13.3% and 10.6%
3 µM,individual replicates,5.05% and 7.54% and 7.9% and 9.06% and 8.93% and 5.36%
30 nM,individual replicates,88.5% and 89% and 87.6% and 86.7% and 86.2% and 97.9%
300 pM,individual replicates,106% and 90.6% and 93.8% and 93%
10 µM,individual replicates,9.76% and 9.34% and 6.75% and 9.11% and 9.69% and 11.3%
1 nM,per-experiment values,88.8% and 103% and 98.5%

# Mixed results
# PKMYT1: Membrane-associated tyrosine- and threonine-specific cdc2-inhibitory kinase (PKMYT1, Homo sapiens, UniProt Q99640)
# Chain of UniProt Q99640 (whole entry, looked up): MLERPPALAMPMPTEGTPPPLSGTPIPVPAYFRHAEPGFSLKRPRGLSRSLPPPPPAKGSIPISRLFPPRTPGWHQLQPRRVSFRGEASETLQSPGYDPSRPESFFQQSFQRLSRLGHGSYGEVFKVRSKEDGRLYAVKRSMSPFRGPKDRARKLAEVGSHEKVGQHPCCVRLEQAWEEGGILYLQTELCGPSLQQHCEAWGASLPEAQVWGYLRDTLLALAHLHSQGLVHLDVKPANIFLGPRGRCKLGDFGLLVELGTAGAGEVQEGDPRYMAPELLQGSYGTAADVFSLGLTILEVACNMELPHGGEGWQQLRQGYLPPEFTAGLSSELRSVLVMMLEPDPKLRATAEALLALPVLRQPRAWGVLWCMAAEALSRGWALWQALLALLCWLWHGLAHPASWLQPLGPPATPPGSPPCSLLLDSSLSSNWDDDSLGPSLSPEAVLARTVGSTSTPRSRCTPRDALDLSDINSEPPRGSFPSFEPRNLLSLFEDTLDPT
Compound,tested on,assay,test system,setting,quantity,value
"Cc1ccc(O)c(C)c1-c1cnc2[nH]c(-c3cnc(N4CCC5(CC4)CC(N4CCN(c6ccc(N[C@@H]7CCC(=O)NC7=O)cc6F)CC4)CO5)nc3)cc2c1C#N (single isomer, unassigned)",PKMYT1,"degrader, automated immunoblot (Jess)",,"12.35 nM, 24 h",degradation,76.5%
O=C(O)C1(O)Oc2cc(F)ccc2N(Cc2ccccc2)C1=O (stereo not shown),Arabidopsis thaliana,,"2-week-old plants, aboveground tissue","foliar spray, 200 µg/mL, 20 days, postemergence",fresh weight,207 mg and 216 mg and 219 mg
Cc1ccc(O)c(C)c1-c1cnc2[nH]c(-c3cnc(N4CCC(CN5CCN(c6cc7c(cc6F)n(C6CCC(=O)NC6=O)c(=O)n7C)CC5)CC4)nc3)cc2c1C#N (stereo not shown),PKMYT1,"degrader, automated immunoblot",HCC1569,0.10 nM,degradation,49.5%
CCCN1C(=O)C(O)(C(=O)O)Oc2cc(F)ccc21 (stereo not shown),Arabidopsis thaliana,,"2-week-old plants, aboveground tissue","foliar spray, 200 µg/mL, 20 days, postemergence",fresh weight,416 mg and 410 mg and 403 mg
Cc1ccc(O)c(C)c1-c1cnc2[nH]c(-c3cnc(N4CCC(CN5CCN(c6ccc7c(c6)C(=O)N(C6CCC(=O)NC6=O)C7=O)CC5)CC4)nc3)cc2c1C#N (stereo not shown),,,"CD-1 mouse, female, fasted, plasma","oral, 10 mg/kg",Cmax,360 ng/mL
Cc1ccc(O)c(C)c1-c1cnc2[nH]c(-c3cnc(N)nc3)cc2c1C#N,HCC1569,"in-cell western, measured: CDK1 phospho-Thr14",,10000 nM,pCDK1 (Thr14) level,77.2% and 78.1%

# For quick reference, copied from above (study 1):
target,read-out,method,baseline,remaining binding [%]
"BMP-2-inducible protein kinase (BMP2K, Homo sapiens, UniProt Q9NSY1)",kinase binding,KINOMEscan,DMSO control,62
"Mitogen-activated protein kinase kinase kinase 4 (MAP3K4, Homo sapiens, UniProt Q9Y6R4)",kinase binding,KINOMEscan,DMSO control,90
"Ephrin type-A receptor 8 (EPHA8, Homo sapiens, UniProt P29322)",kinase binding,KINOMEscan,DMSO control,78
